Results pooled from the literature.
Lines come from different studies, so protocols differ. ± gives the spread as reported.

With `N#C[C@@H]1CCCN1C(=O)CNC(=O)c1ccnc2ccc(OCCCN3CCN(C(=O)CCc4ccc5c(c4)CN4CCN6CC(=O)[O][68Ga-]([O]C(=O)C4)([O]5)[O]c4ccc(CCC(=O)N5CCN(CCCOc7ccc8nccc(C(=O)NCC(=O)N9CCC[C@H]9C#N)c8c7)CC5)cc4C6)CC3)cc12` the tissue uptake was 2.78 ± 1.12 %ID/g (BALB/c nude mice, U-87 MG xenograft, kidney; 1 h).
`O=C(NCC1OC2CCC=CCCC2O1)c1ccc(COCCOCCOCC[18F])cc1` (stereo not shown) has a tissue uptake of 3.1 ± 0.5 %ID/g (healthy female BALB/c nude mice, stomach; intravenous, 7.4 MBq per mouse, 15 min).
With `Cc1cc(C)n(CCN(CCN)CCCCCCNC(=O)[C@@H](N)Cc2c[nH]c3ccccc23)n1.[99Tc+].[C-]#[O+].[C-]#[O+].[C-]#[O+]` the tissue uptake was 0.53 ± 0.06 %IA/g (BALB/c nude mice, A549 xenograft, heart; intravenous, 4 h).
`O=C([O-])CN1CCN(CC(=O)[O-])CCN(CC(=O)NC[C@H]2CC[C@H](C(=O)N[C@H](Cc3cnc4ccccc4c3)C(=O)NCCCC[C@H](NC(=O)N[C@@H](CCC(=O)O)C(=O)O)C(=O)O)CC2)CCN(CC(=O)[O-])CC1.[64Cu+2]` has a tissue uptake of 25.2 %ID/g (ex vivo gamma counting; 22Rv1 tumour-bearing mice, liver; intravenous, 0.74 MBq, 6 h post-injection).
The tissue uptake of `O=C(NCC1OC2CCC=CCCC2O1)c1ccc([18F])nc1` (stereo not shown) is reported as 1.2 ± 0.1 %ID/g (healthy female BALB/c nude mice, heart; intravenous, 7.4 MBq per mouse, 60 min).
The tissue uptake of `CCCC[C@H](NC(=O)CCCCCCCNC(=O)CN1CCN(CC(=O)O)CCN(CC(=O)O)CC1)C(=O)N[C@H]1CC(=O)NCCCC[C@@H](C(N)=O)NC(=O)[C@H](Cc2c[nH]c3ccccc23)NC(=O)[C@H](CCCNC(=N)N)NC(=O)[C@@H](Cc2ccccc2)NC(=O)[C@H](Cc2c[nH]cn2)NC1=O` [fluorine-18 labelled] is reported as 0.12 ± 0.04 %ID/g (C57 mice B16-F10 melanoma, brain; intravenous, 0.37 MBq, 0.5 h).
`COc1ccc2c(c1)C(C)(C)C(/C=C/C1=C(Oc3ccc(C(=O)NCCCCOc4cc(CN(Cc5ccccn5)Cc5ccccn5)cc(CN(Cc5ccccn5)Cc5ccccn5)c4)cc3)C(=C/C=C3/N(CCCCS(=O)(=O)[O-])c4ccc(OC)cc4C3(C)C)CCC1)=[N+]2CCCCS(=O)(=O)[O-].O=[N+]([O-])[O-].O=[N+]([O-])[O-].[99Tc+].[C-]#[O+].[C-]#[O+].[C-]#[O+].[Zn+2]` gave a tissue uptake of 5.13 %ID/g (BALB/c mice, S. aureus myositis, adrenals; 12 h post-injection).
The tissue uptake of `Cc1cc(C)n(CCN(CCN)CCCCCCNC(=O)[C@@H](N)Cc2c[nH]cn2)n1.[99Tc+].[C-]#[O+].[C-]#[O+].[C-]#[O+]` is reported as 0.4 ± 0.08 %IA/g (BALB/c nude mice, MCF7 xenograft, lung; intravenous, 4 h).
For `COc1ccc(Nc2nc(Nc3ccc(OCCOCC[18F])cc3)ncc2Br)cc1`, the tissue uptake was 1.96 ± 0.2 %ID/g (ICR mice, S180 tumour, brain; intravenous, 30 min, together with: PF-562271 33 mg/kg oral 1 h before).
The tissue uptake of `CCCC[C@H](NC(=O)CNC(=O)CNC(=O)[C@H](CCCCNC(=O)[C@H](CC(=O)O)NC(=O)C(C)c1ccc(CC(C)C)cc1)NC(=O)CN1CCN(CC(=O)O)CCN(CC(=O)O)CCN(CC(=O)O)CC1)C(=O)N[C@H]1CC(=O)NCCCC[C@@H](C(N)=O)NC(=O)[C@H](Cc2c[nH]c3ccccc23)NC(=O)[C@H](CCCNC(=N)N)NC(=O)[C@@H](Cc2ccccc2)NC(=O)[C@H](Cc2c[nH]cn2)NC1=O` (stereo partly shown) [lutetium-177 labelled] is reported as 23.9 ± 2.08 %ID/g (C57 mice, tumour-bearing, tumor; intravenous, 0.037 MBq, 4 h).
For `CC(C)C[C@H](NC(=O)[C@@H](CCCCNC(=O)[C@@H](Cc1ccccc1)NC(=O)CCCCCCCNC(=O)CN1CCN(CC(=O)O)CCN(CC(=O)O)CCN(CC(=O)O)CC1)NC(=O)[C@H](Cc1ccc(O)cc1)NC(=O)[C@H](CO)NC(=O)[C@H](Cc1c[nH]c2ccccc12)NC(=O)[C@H](Cc1c[nH]cn1)NC(=O)[C@@H]1CCC(=O)N1)C(=O)N[C@@H](CCCNC(=N)N)C(=O)N1CCC[C@H]1C(=O)NCC(N)=O` [indium-111 labelled], the tissue uptake was 0.41 ± 0.23 %ID/g (male athymic nude mice, DU-145 xenograft, tumour; intravenous, 1 h, together with: 10 µg unlabelled blocking peptide).
The tissue uptake of `CCCC[C@H](NC(=O)COCCOCCNC(=O)CN1CCN(CC(=O)O)CCN(CC(=O)O)CC1)C(=O)N[C@H]1CC(=O)NCCCC[C@@H](C(N)=O)NC(=O)[C@H](Cc2c[nH]c3ccccc23)NC(=O)[C@H](CCCNC(=N)N)NC(=O)[C@@H](Cc2ccccc2)NC(=O)[C@H](Cc2c[nH]cn2)NC1=O` [fluorine-18 labelled] is reported as 0.05 ± 0.1 %ID/g (C57 mice B16-F10 melanoma, heart; intravenous, 0.37 MBq, 2 h).
`CCCC[C@H](NC(=O)CNC(=O)CNC(=O)[C@H](CCCCNC(=O)[C@H](CC(N)=O)NC(=O)C(C)c1ccc(CC(C)C)cc1)NC(=O)CN1CCN(CC(=O)O)CCN(CC(=O)O)CCN(CC(=O)O)CC1)C(=O)N[C@H]1CC(=O)NCCCC[C@@H](C(N)=O)NC(=O)[C@H](Cc2c[nH]c3ccccc23)NC(=O)[C@H](CCCNC(=N)N)NC(=O)[C@@H](Cc2ccccc2)NC(=O)[C@H](Cc2c[nH]cn2)NC1=O` (stereo partly shown) [lutetium-177 labelled] has a tissue uptake of 1.44 ± 0.75 %ID/g (C57 mice, tumour-bearing, lung; 2 h).

Repeated from above:
The tissue uptake of `Cc1cc(C)n(CCN(CCN)CCCCCCNC(=O)[C@@H](N)Cc2c[nH]cn2)n1.[99Tc+].[C-]#[O+].[C-]#[O+].[C-]#[O+]` is reported as 0.4 ± 0.08 %IA/g (BALB/c nude mice, MCF7 xenograft, lung; intravenous, 4 h).
